Experimental data collected from several papers.
Lines come from different studies, so protocols differ. ± gives the spread as reported.

Molecule | target or system | assay | test system | setting | scale | quantity | result
CC1=C(C(=O)Cl)C(c2ccccc2Br)NC(=S)N1 (stereo not shown) | – | carotid artery cannulation | male Wistar rats, anaesthetised | 0.3 mL, 3 h | – | mean arterial pressure | 27.6 ± 0.74 mm Hg
CC[C@H](C)[C@H](NC(=O)CNC(=O)[C@H](Cc1c[nH]c2ccccc12)NC(=O)CNC(C)=O)C(=O)N[C@@H](CCCCN)C(N)=O | – | DSC | SOPC/cholesterol 6/4 bilayers | 15 mol%, pH 7.40 | – | transition enthalpy | 0.9 kcal/mol
CCOC(=O)[C@H](C)C[C@@H](Cc1ccc(-c2ccccc2)cc1)NC(=O)CCC(=O)O | – | – | rat high-fat streptozotocin diabetes | drinking water, 18 mg/kg/day, 6 weeks, added: ANP 2 pmol/kg/min s.c. | – | fractional shortening | ~50%
C[C@@H]1NC(C)(C)CO[C@@]1(O)c1ccc(F)c(F)c1 | – | nicotine antinociception blockade, antagonist, tail-flick test | mouse | 15 min pretreatment, added: nicotine 2.5 mg/kg subcutaneous | – | ED50 | ~0.006 mg/kg
CC(=O)N[C@@H](CC(C)C)C(=O)N1CCC[C@H]1C(=O)N[C@@H](Cc1ccc(O)cc1)C(=O)N1CCC[C@H]1C(=O)N[C@@H](CCCCN)C(N)=O | – | DSC | SOPC/cholesterol 7/3 bilayers | 10 mol%, pH 7.40 | – | transition enthalpy | 0.5 kcal/mol
c1ccc2c(c1)cc1ccc3cccc4ccc2c1c34 | – | inducer | female rat, liver | oral, 10 mg, 24 h, sesame oil vehicle | – | menadione reductase activity | 56 enzyme units
CC[C@H](C)[C@H](NC(=O)[C@@H](N)Cc1ccccc1)C(=O)N1CCC[C@H]1C(=O)N[C@@H](CCC(N)=O)C(=O)N[C@@H](Cc1ccc(O)cc1)C(=O)N[C@@H](CC(C)C)C(=O)N[C@@H](CO)C(=O)N[C@@H](C)C(=O)N[C@H](C(=O)O)C(C)C | – | – | PBMC, human, HSV-1 seropositive, HLA-A*0201+ | 10 µg/mL, 72 h | – | IFN-γ+ CD8+ T cells | ≤ 3.7%
CC[C@H](C)[C@H](NC(=O)[C@H](CCSC)NC(=O)[C@H](CO)NC(=O)[C@H](Cc1ccccc1)NC(=O)[C@H](CO)NC(=O)[C@H](CCCCN)NC(=O)[C@H](CC(=O)O)NC(=O)[C@H](CC(C)C)NC(=O)[C@@H](N)CCCCN)C(=O)N[C@@H](CCCCN)C(=O)N[C@@H](CCC(=O)O)C(=O)NCC(=O)N[C@@H](CC(=O)O)C(=O)N[C@@H](Cc1ccc(O)cc1)C(=O)N[C@@H](CC(N)=O)C(=O)N1CCC[C@H]1C(=O)N[C@@H](CC(C)C)C(=O)N[C@@H](Cc1ccccc1)C(=O)N[C@H](C(=O)N1CCC[C@H]1C(=O)N[C@H](C(=O)N[C@@H](C)C(=O)N[C@H](C(=O)N[C@@H](CCSC)C(=O)N[C@H](C(=O)N[C@H](C(=O)N[C@@H](C)C(=O)N[C@@H](Cc1ccccc1)C(=O)N[C@@H](CO)C(=O)NCC(=O)N[C@@H](CC(C)C)C(=O)N[C@@H](C)C(=O)N[C@@H](Cc1ccccc1)C(=O)N[C@H](C(=O)N[C@H](C(=O)N[C@@H](Cc1c[nH]c2ccccc12)C(=O)N[C@@H](CC(C)C)C(=O)N[C@@H](C)C(=O)N[C@@H](CCCNC(=N)N)C(=O)N[C@@H](CCCNC(=N)N)C(=O)N[C@@H](CC(C)C)C(=O)N[C@@H](CCCCN)C(=O)N[C@@H](CCCCN)C(=O)NCC(=O)N[C@@H](CCCCN)C(=O)N[C@@H](CCCCN)C(=O)N[C@@H](CO)C(=O)N[C@@H](CCCCN)C(=O)N[C@@H](CCCNC(=N)N)C(=O)N[C@@H](CSC1CC(=O)N(c2ccc(-c3c4ccc(N(C)C)cc4[o+]c4cc(N(C)C)ccc34)c(C(=O)[O-])c2)C1=O)C(=O)N[C@@H](CCSC)C(=O)N[C@@H](CC(N)=O)C(=O)N[C@@H](CC(=O)O)C(=O)N1CCC[C@H]1C(=O)N[C@@H](Cc1ccc(O)cc1)C(=O)O)[C@@H](C)CC)[C@@H](C)CC)[C@@H](C)O)C(C)C)C(C)C)C(C)C)[C@@H](C)CC (stereo partly shown) | – | iodide collisional quenching | 15% POPS versus POPC liposomes | concentration not given, pH 7.4, added: NaI 150 mM, NaNO3 up to 800 mM | – | TMR fluorescence difference | decreased
CC[C@H](C)[C@H](NC(=O)[C@H](Cc1ccc(O)cc1)NC(=O)[C@@H](NC(=O)[C@@H]1CCCN1C(=O)[C@H](CCCNC(=N)N)NC(=O)[C@H](CC(N)=O)NC(=O)[C@H](CC(N)=O)NC(=O)[C@H](CCCN)N=C(N(C)C)N(C)C)C(C)C)C(=O)N1CCC[C@H]1C(=O)N[C@@H](CCCNC(=N)N)C(=O)N1CCC[C@H]1C(=O)N[C@@H](CCCNC(=N)N)C(=O)N1CCC[C@H]1C(=O)N1CCC[C@H]1C(=O)N[C@@H](Cc1c[nH]cn1)C(=O)N1CCC[C@H]1C(=O)N[C@@H](CCCNC(=N)N)C(=O)N[C@@H](CC(C)C)C(=O)O | – | binding, fluorescence polarization | 70S ribosome, Escherichia coli BW25113 | 90 min, pH 7.6, 28 °C, added: fluorescein-labelled peptide | – | Kd | 379 ± 22 nM
C[C@]12N3Cc4c(c(OCCCS(=O)(=O)[O-])c5ccccc5c4OCCCS(=O)(=O)[O-])CN1C(=O)N1CN4C(=O)N5CN6C(=O)N7CN8C(=O)N9Cc%10c(c(OCCCS(=O)(=O)[O-])c%11ccccc%11c%10OCCCS(=O)(=O)[O-])CN%10C(=O)N(CN%11C(=O)N(CN%12C(=O)N(CN(C3=O)[C@]12C)[C@@H]4[C@H]%125)[C@@H]6[C@H]%117)[C@]8(C)[C@@]9%10C.[Na+].[Na+].[Na+].[Na+] | – | – | Sprague-Dawley rat | intravenous, 80 mg/kg/min from 3 min, added: ketamine 30 mg/kg i.v. | – | time to recovery of righting reflex | 6 ± 0.7 min
CCCC(C(N)=O)C(C)CC (stereo not shown) | – | – | rat sciatic nerve | 1 or 3 mM, added: stimulation 0.2 Hz | baseline: baseline | compound action potential area | no effect
CC(=O)N[C@@H](CC(C)C)C(=O)NCC(=O)N[C@@H](Cc1ccc(O)cc1)C(=O)NCC(=O)N[C@@H](CCCCN)C(N)=O | – | DSC | SOPC/cholesterol 6/4 bilayers | 15 mol%, pH 7.40 | – | transition enthalpy | 0.3 kcal/mol
NC[C@H]1O[C@H](O[C@H]2[C@H](O)[C@@H](O[C@H]3O[C@H](CO)[C@@H](O)[C@H](N)[C@H]3O)[C@H](N)C[C@@H]2N)[C@H](N)C[C@@H]1O | – | [14C]-phenylalanine incorporation, inhibitor, (UUU)12-directed cell-free translation | M. smegmatis 70S ribosomes, Leishmania/Trypanosoma hybrid decoding site | 60 min, 37 °C | – | IC50 | > 500000 nM
Cc1ccc(NC(=S)NS(=O)(=O)c2cnc(N/N=C/c3ccccc3)[nH]c2=O)cc1 | – | oral glucose tolerance test | HFD/STZ type 2 diabetic rat | oral, 10 mg/kg, added: glucose 1 g/kg | – | glucose AUC | 595 ± 50.2 mg·min/dL
Cc1ncc(COCc2cn(Cc3cc(F)cc(F)c3)nn2)c(CO)c1O | – | Cu2+ chelation | – | 100 µM, 30 min, 37 °C, added: Cu2+ 100 µM | – | absorbance change | 0%
O=C(NCc1ccc(-c2ccccc2)cc1)c1cccc(=O)n1O | – | – | rat, isolated perfused stunned heart | dose not given, 20-25 min ischaemia, 30 min reperfusion | – | ventricular weight | 58.7 ± 2.1 mg
CC1=C(C(=O)Nc2ccc(C)cc2)C(c2ccccc2C#N)NC(=S)N1 (stereo not shown) | – | carotid artery cannulation | male Wistar rats, anaesthetised | 0.3 mL, 3 h | – | mean arterial pressure | 22.8 ± 0.95 mm Hg
CC(C)C[C@H](NC(=O)[C@H](CC(C)C)NC(=O)[C@H](CCCCN)NC(=O)[C@H](C)NC(=O)[C@H](CC(C)C)NC(=O)[C@H](CCCCN)NC(=O)[C@H](CCCCN)NC(=O)[C@H](CC(C)C)NC(=O)[C@H](C)NC(=O)[C@H](CCCCN)NC(=O)[C@H](CCCCN)NC(=O)[C@H](Cc1ccc(O)cc1)NC(=O)[C@@H](N)CCCCN)C(N)=O | – | carboxyfluorescein release | EYPC vesicles | 10 µg/mL, 250 s, pH 7.4, 25 °C | baseline: Triton X-100 | leakage | 52%
CCCCCOc1ccc(-c2ccc(-c3ccc(C(=O)N[C@H]4C[C@@H](O)[C@@H](O)NC(=O)[C@@H]5[C@@H](O)[C@@H](C)CN5C(=O)[C@H]([C@@H](C)O)NC(=O)[C@H]([C@H](O)[C@@H](O)c5ccc(O)cc5)NC(=O)[C@@H]5C[C@@H](O)CN5C(=O)[C@H]([C@@H](C)O)NC4=O)cc3)cc2)cc1 | – | – | patients, invasive candidiasis | dose not given, end of IV therapy | – | global response failure | 12.5%
CCCCCCCCCCCCCC(=O)O[C@@H]1[C@@H](C)[C@@]2(O)[C@@H](C=C(CO)C[C@]3(O)C(=O)C(C)=C[C@@H]23)[C@@H]2C(C)(C)[C@]12OC(C)=O | – | item: Yes pY416 | rat | 1 µM, 2.5 min, no PKC inhibitor | baseline: control | Yes phosphorylation | 369 ± 41%
C[C@@H]1NC(C)(C)CO[C@@]1(O)c1cccc(Cl)c1 | – | nicotine antinociception blockade, antagonist, tail-flick test | mouse | 15 min pretreatment, added: nicotine 2.5 mg/kg subcutaneous | – | ED50 | 0.2 mg/kg
CC1=C(C(=O)O)C(c2ccccc2Cl)NC(=S)N1 (stereo not shown) | – | carotid artery cannulation | male Wistar rats, anaesthetised | 0.3 mL, 3 h | – | mean arterial pressure | 24.8 ± 0.94 mm Hg
NC[C@@H]1O[C@H](O[C@H]2[C@@H](O)[C@H](O[C@@H]3[C@@H](O)[C@H](N)C[C@H](N)[C@H]3O[C@H]3O[C@H](CO)[C@@H](O)[C@H](O)[C@H]3N)O[C@@H]2CO)[C@H](N)[C@@H](O)[C@@H]1O | – | luciferase synthesis, inhibitor, coupled transcription-translation | M. smegmatis 70S ribosomes, Leishmania/Trypanosoma hybrid | 60 min, 37 °C | – | IC50 | 180 nM
Cc1ccc2cc3c(ccc4ccccc43)c3c2c1CC3 | – | inducer | female rat, liver | oral, 1 mg, 24 h, sesame oil vehicle | – | menadione reductase activity | 51.2 enzyme units
CC(C)(NC(=O)O[C@@H]1CN2CCC1CC2)c1csc(-c2ccc(F)cc2)n1 | – | – | sample A patients, CSF | dose not given, week 52, added: imiglucerase | baseline: baseline | chitotriosidase activity decrease | 29%
CC(C)C[C@H](NC(=O)[C@H](C)NC(=O)[C@H](CCCNC(=N)N)NC(=O)[C@@H](NC(=O)CNC(=O)[C@@H]1CCCN1C(=O)[C@H](Cc1c[nH]c2ccccc12)NC(=O)[C@H](Cc1ccc(O)cc1)NC(=O)[C@@H](N)CC(C)C)C(C)C)C(=O)N[C@@H](CC(C)C)C(=O)NCC(=O)O | – | IFN-γ release, ELISPOT | splenocytes, BALB/c mouse immunised | – | – | EC50 | 1000 nM
acyline | – | – | human men | sc, 300 µg/kg, 24 h | – | serum DHT | 9.9 ± 5.4 ng/dL
CN[C@@](C)(C[18F])C(=O)O | SK-OV-3 tumour model | – | host not given, tumour | 15 min, tumour-bearing | – | tracer uptake | 6.4 %ID/g

A few entries again:
Molecule | target or system | assay | test system | setting | scale | quantity | result
CC(=O)N[C@@H](CC(C)C)C(=O)NCC(=O)N[C@@H](Cc1ccc(O)cc1)C(=O)NCC(=O)N[C@@H](CCCCN)C(N)=O | – | DSC | SOPC/cholesterol 6/4 bilayers | 15 mol%, pH 7.40 | – | transition enthalpy | 0.3 kcal/mol
CC(C)C[C@H](NC(=O)[C@H](C)NC(=O)[C@H](CCCNC(=N)N)NC(=O)[C@@H](NC(=O)CNC(=O)[C@@H]1CCCN1C(=O)[C@H](Cc1c[nH]c2ccccc12)NC(=O)[C@H](Cc1ccc(O)cc1)NC(=O)[C@@H](N)CC(C)C)C(C)C)C(=O)N[C@@H](CC(C)C)C(=O)NCC(=O)O | – | IFN-γ release, ELISPOT | splenocytes, BALB/c mouse immunised | – | – | EC50 | 1000 nM
